Results collected from several papers.
Parts stem from different laboratories: compare values within a part only. Changes are numbered by the printed parent chain.

Block 1 — technique: universal PBM; form: double-stranded DNA, one strand shown; matrix: in vitro; concentration: not given; reading: higher = stronger binding; endpoint: E-score
Target: Sal-like protein 4, full length isoform B (SALL4, Homo sapiens, UniProt Q9UJQ4-2, residues 1-616)
Setting: 8-mer, flanks averaged, mean of replicates
GACAAGGA: 0.148
CTTATGTA: 0.319
CTCGTACA: 0.00344
CATCCTAG: -0.099
GATAGCCC: -0.187
CCCTCTGC: -0.274
AAACACGT: 0.0686
CAAGTCCA: -0.00739
ACAGCTCA: -0.152
ATCTTGCA: 0.236
CGACACAA: -0.0913

Block 2 — target: CCNF, cyclin fold, Cln2 fusion (human); technique: yeast growth competition, sequencing; matrix: yeast; setting: strong parent motif; baseline: not given; reading: higher = stronger binding; endpoint: normalised enrichment score
Starting sequence: SLBP docking peptide (human); ARYKRKLLINDFG
Y3G: 1.71
K6R: 0.942
L8P: 1.77
N10M: 2.07
N10A: 1.93
R2I: 2.03
N10K: 2.27
A1G: 1.86

Block 3 — target: CEBPA, bZIP domain (human); technique: DHFR protein complementation; matrix: yeast; baseline: wild-type JUN-FOS pair; reading: higher = stronger binding; endpoint: binding fitness
Setting: single substitutions, most at no-binding floor
Starting sequence: JUN, bZIP domain (human); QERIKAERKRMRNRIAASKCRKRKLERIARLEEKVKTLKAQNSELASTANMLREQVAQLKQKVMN; partner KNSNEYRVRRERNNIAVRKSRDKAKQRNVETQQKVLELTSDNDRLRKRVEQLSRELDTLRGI
E54T: -1.41 natural log
A40K: -1.29 natural log
A29K: -1.58 natural log
E44L: -1.36 natural log
T37H: -1.16 natural log

Mixed results
PhoQ, residues 284 288 289 292 302 303 ASHLAV — fold induction (PhoP, residues 12 14 15 18 19 STHWV (Escherichia coli, UniProt P23836); Sort-seq, item: YFP reporter; E. coli; PhoQ-PhoP variant library, together with: 10 µM Mg2+; baseline: high Mg2+ state, higher = stronger signaling): 0.916

A few entries again (block 1):
ACAGCTCA: -0.152
ATCTTGCA: 0.236
GATAGCCC: -0.187
